Measurements from different studies.
Each line is one published result; not all experiments were run side by side.
Organism: Pseudomonas aeruginosa

CC1(C)[C@H](NC(=O)/C(=N\OCCN)c2nsc(N)n2)C(=O)N1OS(=O)(=O)O — MIC (agar dilution; ATCC 27853): > 64 mg/L
N=C(N)NCCC[C@@H]1NC(=O)[C@H](CCCNC(=N)N)NC(=O)[C@@H](CCCNC(=N)N)NC(=O)[C@@H](CCCNC(=N)N)NC(=O)[C@@H](C(c2ccccc2)c2ccccc2)NC(=O)[C@H](Cc2c[nH]c3ccccc23)NC(=O)[C@@H](C(c2ccccc2)c2ccccc2)NC1=O — MIC (ATCC 27853): 64 mg/L
CCOc1c(NC(=O)c2ccc(NC(=O)c3ccc(NC(=O)[C@H](Cc4c[nH]nn4)NC(=O)c4ccc(NC(=O)/C(C)=C/c5ccc(O)cc5)cc4)cc3)c(OCC)c2O)ccc(C(=O)O)c1O — MIC (broth microdilution; ciprofloxacin-sensitive): 0.5 mg/L
CC[C@H]1OC(=O)[C@H](C)[C@@H](OC(=O)Cc2ccccc2[N+](=O)[O-])[C@H](C)[C@@H](O[C@@H]2O[C@H](C)C[C@H](N(C)C)[C@H]2O)[C@](C)(OC)C[C@@H](C)C(=O)[C@H](C)[C@@H](O)[C@]1(C)O — MIC (PAO397, five efflux pumps deleted): 32 mg/L
COc1ccccc1C(=O)Oc1cccccc1=O — MIC (broth microdilution; ATCC 27853, CAMHB; 16 to 24 h, ≥80% growth inhibition): > 71.4 µM
CO[C@@H]1[C@@H](OC(N)=O)[C@@H](O)[C@H](Oc2ccc3c(O)c(NC(=O)c4ccc(O)c(CC=C(C)C)c4)c(=O)oc3c2C)OC1(C)C — MIC (microbial growth, broth dilution): 64 mg/L
COc1c(NC(=O)c2ccc(NC(=O)c3ccc(NC(=O)[C@H](Cc4c[nH]nn4)NC(=O)c4ccc(NC(=O)/C(C)=C/c5ccc(O)cc5)cc4)cc3)c(OC)c2O)ccc(C(=O)O)c1O — MIC (broth microdilution; ciprofloxacin-resistant): 8 mg/L
C#CCO/N=C(\C(=O)N[C@@H]1C(=O)N(OS(=O)(=O)O)C1(C)C)c1nsc(N)n1 — MIC (agar dilution; PAO1): > 64 mg/L
CC[C@H]1OC(=O)[C@H](C)[C@@H](OC(=O)c2ccc(N)cc2)[C@H](C)[C@@H](O[C@@H]2O[C@H](C)C[C@H](N(C)C)[C@H]2O)[C@](C)(OC)C[C@@H](C)C(=O)[C@H](C)[C@@H](O)[C@]1(C)O — MIC (microbial growth; ATCC27853): > 32 mg/L
CC[C@H]1OC(=O)[C@H](C)[C@@H](O[C@H]2C[C@@](C)(OC)[C@@H](O)[C@H](C)O2)[C@H](C)[C@@H](O[C@@H]2O[C@H](C)C[C@H](N(C)C)[C@H]2O)[C@](C)(O)C[C@@H](C)CN(C)[C@H](C)[C@@H](O)[C@]1(C)O — MIC (broth microdilution; phenazine non-producing): 16 mg/L
CC[C@H]1OC(=O)[C@H](C)C(=O)[C@H](C)[C@@H](O[C@@H]2O[C@H](C)C[C@H](N(C)C)[C@H]2O)[C@](C)(OC)C[C@@H](C)C(=O)[C@H](C)[C@H]2N(CCCCn3cnc(-c4cccnc4)c3)C(=O)O[C@]12C — MIC (PAO397, five efflux pumps deleted): > 32 mg/L
C=CCO/N=C(\C(=O)N[C@@H]1C(=O)N(S(=O)(=O)O)[C@H]1C)c1csc(N)n1 — MIC (microbial growth, agar dilution; ATCC27): 32 mg/L
COc1c(NC(=O)c2ccc(NC(=O)[C@H](Cc3c[nH]nn3)NC(=O)c3ccc(NC(=O)/C(C)=C/c4ccc(O)cc4)cc3)cc2)ccc(C(=O)Nc2ccc(C(=O)O)cc2)c1O — MIC (broth microdilution; ciprofloxacin-sensitive): 4 mg/L
C#CCNC(=O)C(C)(C)O/N=C(\C(=O)N[C@@H]1C(=O)N(S(=O)(=O)O)[C@H]1C)c1csc(N)n1 — MIC (microbial growth, agar dilution; PAO1): 64 mg/L
Oc1c(Br)cc(Br)c2nc3c(C(F)(F)F)cc(C(F)(F)F)cc3nc12 — MIC: ≥ 100 µM
CN[C@H](CC(C)C)C(=O)N[C@H]1C(=O)N[C@@H](CC(N)=O)C(=O)N[C@H]2C(=O)N[C@H]3C(=O)N[C@H](C(=O)N[C@H](C(=O)N[C@@H](CCCNC(=N)N)C(N)=O)c4cc(O)cc(O)c4-c4cc3ccc4O)[C@H](O)c3ccc(c(Cl)c3)Oc3cc2cc(c3O[C@@H]2O[C@H](CO)[C@@H](O)[C@H](O)[C@H]2O[C@H]2C[C@](C)(NCc3ccc(OCc4cn(CC(=O)N[C@H](C(=O)N[C@@H](CCN)C(=O)N[C@H]5CCNC(=O)[C@H]([C@@H](C)O)NC(=O)[C@H](CCN)NC(=O)[C@H](CCN)NC(=O)[C@H](CC(C)C)NC(=O)[C@@H](CC(C)C)NC(=O)[C@H](CCN)NC5=O)[C@@H](C)O)nn4)c(OC)c3)[C@H](O)[C@H](C)O2)Oc2ccc(cc2Cl)[C@H]1O — MIC (broth microdilution; ATCC 27853, cation-adjusted Mueller-Hinton broth; 18 to 20 h, 37 °C, 0.002% polysorbate 80): 16 mg/L
CCCCCCCCCC[N+](C)(C)CCCCCCCCOc1cc(OCCCCCCCC[N+](C)(C)CCCCCCCCCC)cc(OCCCCCCCC[N+](C)(C)CCCCCCCCCC)c1.[Br-].[Br-].[Br-] — MIC (PAO1): 32 µM
CCCCCC(=O)Oc1c(C)c(OC)c2c(c1C)OC(=O)[C@@H](CCCC)[C@]2(O)/C=C/c1ccccc1 (relative stereo) — MIC (microbial growth, broth dilution; ATCC27853): 5000 mg/L
COc1ccc(O)c(/C=N/[C@@H]2CCCC[C@@H]2/N=C/c2c(O)ccc3ccc(OC)cc23)c1 — MIC (microbial growth, broth dilution): > 40 µM
CC(C)C[C@@H]1NC(=O)[C@@H](CC(C)C)NC(=O)[C@H](CCN)NC(=O)[C@@H](NC(=O)[C@H](CCN)NC(=O)[C@@H](N)[C@@H](C)O)CCNC(=O)[C@H]([C@@H](C)O)NC(=O)[C@H](CCN)NC(=O)[C@H](CCN)NC1=O — MIC (broth microdilution; ATCC 35218, cation-adjusted Mueller-Hinton broth): > 138 µM
CCCCCCCCCCn1cc[n+](CCCCOc2cc(OCCCC[n+]3ccn(CCCCCCCCCC)c3)cc(OCCCC[n+]3ccn(CCCCCCCCCC)c3)c2)c1.[Br-].[Br-].[Br-] — MIC (PAO1): 2 µM
O=[N+]([O-])c1c(Br)c(Cl)c2cccnc2c1O — MIC (microbial growth, broth dilution; ATCC27853): 4 mg/L
COc1ccc2ccc(O)c(/C=N/[C@H]3CCCC[C@H]3/N=C/c3cccc(C)c3O)c2c1 — MIC (microbial growth, broth dilution; clinical isolate): > 40 µM
CC[C@H]1OC(=O)[C@H](C)[C@@H](OC(=O)Cc2ccc(Cl)cc2)[C@H](C)[C@@H](O[C@@H]2O[C@H](C)C[C@H](N(C)C)[C@H]2O)[C@](C)(OC)C[C@@H](C)C(=O)[C@H](C)[C@@H](O)[C@]1(C)O — MIC (microbial growth; ATCC27853): > 32 mg/L
